Published values of several laboratories.
A part holds a random share of what one study measured.

Series 1
Target: RNA binding protein fox-1 homolog 2, RRM domain, GST-SBP tag (RBFOX2, Homo sapiens, UniProt O43251-10, residues 100-194)
Technique: RNA Bind-n-Seq
Molecule type: RNA
Sample: in vitro
Tested at: 365 nM
Setting: natural RNA segment, single round, ends assumed
Reference: no-protein control
Reading: higher = stronger binding
Endpoint: RBNS enrichment (R)
Constant ends, left off below: GGGAGUUCUACAGUCCGACGAUC … UGGAAUUCUCGGGUGCCAA
Construct (chain): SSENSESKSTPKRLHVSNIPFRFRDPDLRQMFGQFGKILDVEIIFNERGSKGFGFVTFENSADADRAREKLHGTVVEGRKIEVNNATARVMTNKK
CUGCCUGGCCUCCAAUUUGUAAUCCUCCUGCCUCAGCCUUGAGUGCUGGAAUUGAGUGUGUGCCACCUUGACCAGCCUUUUGUUUCCUUUUUAAUACUAAACCUUACAGU: 0.514
UCUUGGGAAAACUAAAAAUUGUACAUCCAUGCUUCAGCCAUAUCAUGGGCCUAAACUAUGAGAGUUCAGAAAUAUAUAAAAGUACAAAAAUCUUCAAAGGUACUUAUUUC: 0.681
UUUCUUCCUGUUGCUGGAUUCUCACCUCCAUGGGCCUGUCUCUUCUGCCUCUGCCUUCUGGACACCGUUUCCUCUCCGCUGCUUCAGAGAGCUUUGCCUCGCCUCCGCCU: 0.314
CUUUCUUUCUAGACUGGAUUAUGCUCACAUGCUCCCUUGCCCUGACAUUUUUGUAAAUUCUGUGCCCUUUGCUGUAGCUACACUUCAGAUUAAAGUAGGAGAAAGAAUGU: 0.196
UGUGAGUGCCCGGCCUCCAGGUGGGGCCCCUGCCCUCUUCCAGCAGCCCAGGACACCUACGCCUCGUCCCUCGGUGCCUGGGUCCAGCCCUGUGCCCCUCUGUCCGCCUC: 0.409
CAGCCUCUCUCUGCCUCUGGCCCCCAAGUCACCAGGCUGCACACACACGUGGUCGGUCACAUUGCCCUGCCUUACCUCCCAGGGGCCAACCCCUCACUGGUCUUGCAUGA: 1.6
GUUCCAGUAACCAAGCCAGUCCCCAGGACACUAGUCUACGUUGGCAGGACUUCACAAGUUAAUCAUUCCUUAGGCCUCCCUUGGCCCUUUCAUCCUGGAUUCUUAGGUGG: 0.565
UUGCUUUGCUUAGUUGGCAAAAGCAGGAAAAGAGGUGACAGAGAAUGUUGACUCCAAGGUCCCUAGGAAAUCUCACGAUACACUGGCCGCUGGUUGGUACACUGAUUUCC: 0.199
GCUGAGCUGCAGUGAUGACGCUACACACCAACCAUGGCUUUAGCAGCAGCCCUGGUUCCUUCCCAGUCAUACUUAUGGAAGAUGUGCCCUUCCAGAGGAAUAAGUUUGUU: 0.63
AUAUUUGGGCAGAGCCUAAACGUGCAUGCUUGUCACUCAAACACCAGAAGUUUGAAUCAGAGGUCUGAGUGACCUCUUUUGUGGCUGUUCUUGAUGGUUUCCAGGCCUCG: 2.14
GCAAUAUAAUAGUCAAUGAACUUUCAGUUUAAAUUGUGUACAUUUUUAAAUUGUAAGAUUUUUACUGUAUAUUGAUGCAUAGUGUGAUUCAAUAAAUUGCUUGUAAUUUA: 0.537
GGUGCUGAGAAAGAUAUGUAUGCUGAAGGCUGUGAUUCCUCUUUUUAUUGUACCUAUGCCUGGGUGCUAAAGGUCAUGUAAGGACUAGUUCCUUUGAGGAGGACCCCCUG: 1.52

Series 2
Target: Histone acetyltransferase KAT6A, winged helix 1, GST fusion (KAT6A, Homo sapiens, UniProt Q92794, residues 1-85)
Technique: protein binding microarray
Molecule type: double-stranded DNA, one strand shown
Sample: in vitro
Tested at: not given
Setting: 8-mer, flanks averaged, mean of 2 arrays, mostly near background
Reference: not given
Reading: higher = stronger binding
Endpoint: E-score
Construct (chain): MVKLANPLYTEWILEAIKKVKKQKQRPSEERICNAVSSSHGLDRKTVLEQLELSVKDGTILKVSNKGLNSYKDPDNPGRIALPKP
AGCTTCTA: -0.103
CCACGCGC: 0.392
AGGACAGG: -0.226
ATGGATCA: -0.247
ACCCTGCG: -0.0752
GAGCCCTC: 0.00589
AAGGACCG: 0.0828
GCACAGGC: 0.037
AGGACCAA: -0.196
ATCCGACA: 0.041
GGCCCTCA: 0.0166
ACGAATCG: 0.0693
CAAGGCTA: 0.00547
ACTAATTG: -0.0549
CACGCTGG: -0.0232
CCGGATAA: 0.069
AACACTCG: -0.018
GCGCGTAA: 0.388
CAATAATA: -0.245
AACAGCAG: -0.0803
GATCAAAC: -0.0686
CAGTGTCA: -0.0991
GAACAGAA: -0.12
TAAGCAGA: -0.0931
GATATTCA: -0.103

Series 3
Target: Centromere-binding protein 1, full length, N-terminal tag (CBF1, Saccharomyces cerevisiae, UniProt P17106, residues 1-351)
Sequence of UniProt P17106 (whole entry, looked up): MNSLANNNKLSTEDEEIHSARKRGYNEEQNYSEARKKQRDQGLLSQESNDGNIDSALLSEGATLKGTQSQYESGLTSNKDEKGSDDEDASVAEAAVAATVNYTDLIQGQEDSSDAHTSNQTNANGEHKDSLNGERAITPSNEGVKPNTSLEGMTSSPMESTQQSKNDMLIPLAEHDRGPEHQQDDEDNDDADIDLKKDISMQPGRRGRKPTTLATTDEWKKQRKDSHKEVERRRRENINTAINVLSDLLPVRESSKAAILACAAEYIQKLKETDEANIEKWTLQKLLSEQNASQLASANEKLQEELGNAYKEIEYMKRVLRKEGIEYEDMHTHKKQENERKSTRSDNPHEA
Technique: protein-binding microarray
Molecule type: double-stranded DNA, one strand shown
Sample: in vitro
Tested at: 0.8 µM
Setting: whole 60-bp probe, no competitor
Reading: higher = stronger binding
Endpoint: fluorescence intensity
Constant ends, left off below: … GTCTTGATTCGCTTGACGCTGCTG
GAAAAGTCGTTTATACACGTTTGAGTTGTGTGTTAG: 524 a.u.
CTAGGCGCGGAGTCGCTGATGACGCAATAGGCATTC: 490 a.u.
CTAGATTCACCCCCTGATGTTTTTTAGGCCACTTTC: 548 a.u.
CTATATCGTTCTCAAGACGTGGTCCCATTTTTTTTC: 531 a.u.
CTACGCACATACATGCACGCGCATGACAGTGACTTC: 853 a.u.
CTATTACACTAAAAAGGTAACGTGTAGAGTGATTTC: 708 a.u.
GAAATATACCACAGTAACGTGCAGGTAAAACATTAG: 851 a.u.
CTACCAAATGGGTGTCACCAGCGGTGGCCTTAATTC: 459 a.u.
CTAATCCATTGGAATCACGCCCTAGTTCAGCAATTC: 667 a.u.
GAACCATAGTAACACCACGCAAGGTAACTGTCCTAG: 517 a.u.
GAATACATTGGTATAGACGTGGGAGAAGAAAAGTAG: 618 a.u.
TGTACGAAGCTATTAAACATGACTATAGTAGTTAGG: 529 a.u.
GAATAATGTAGACGTGGTGTTACTACAATTGTATAG: 545 a.u.
GAAAAGGAAGGTGTTCACGTTCCTGATTTATTCTAG: 670 a.u.
CTACACTGATTGCTCCACGTCATGCGGCCTTCTTTC: 582 a.u.
GAAGCCTATTATGGTGAGCAGGTGAAATCCTAGTAG: 554 a.u.
GAAATAAGCGCTAGCGTGGTGACACCCACAAAATAG: 547 a.u.
GAATCTTCGCAAGTACATGTGCGCAGCAGCCATTAG: 652 a.u.
CTATTTTACGTTAATGACGTCATGGTAGTGTTCTTC: 509 a.u.
GAAACAAGCTTAATGCACGAGCCGAAACAATATTAG: 564 a.u.
CTATGAAAACTCACTCACGTCTTCCTAGAAGATTTC: 513 a.u.
GAATTCTATTGAAGCAACGTGCAAGATGATCACTAG: 818 a.u.
CTATACTGAATAGCCCACGCACGGGTTCGGGGTTTC: 609 a.u.
CTATTTTGCAAAATTCACACCTGAGTAATTCATTTC: 510 a.u.
GAAATGACTAGATGTCACGAATGTTTTGGAGAATAG: 597 a.u.

Series 4
Target: Ras GTPase-activating protein-binding protein 1, full length (G3BP1, Homo sapiens, UniProt Q13283)
Sequence of UniProt Q13283 (whole entry, looked up): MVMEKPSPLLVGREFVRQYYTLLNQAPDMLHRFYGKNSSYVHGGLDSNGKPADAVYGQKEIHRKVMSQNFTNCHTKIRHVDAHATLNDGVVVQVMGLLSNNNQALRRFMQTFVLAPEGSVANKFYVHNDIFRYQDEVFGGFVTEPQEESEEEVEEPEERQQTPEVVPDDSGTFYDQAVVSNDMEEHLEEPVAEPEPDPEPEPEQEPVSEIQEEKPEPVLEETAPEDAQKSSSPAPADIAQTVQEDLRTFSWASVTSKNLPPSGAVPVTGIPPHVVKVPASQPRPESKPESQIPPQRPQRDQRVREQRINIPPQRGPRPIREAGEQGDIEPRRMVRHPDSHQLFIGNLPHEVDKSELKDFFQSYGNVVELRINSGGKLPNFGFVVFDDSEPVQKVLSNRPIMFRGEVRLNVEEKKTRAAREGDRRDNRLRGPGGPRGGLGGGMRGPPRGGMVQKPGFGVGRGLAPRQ
Technique: RNA Bind-n-Seq
Molecule type: RNA
Sample: in vitro
Tested at: 200 nM
Setting: whole 134-nt RNA, ends assumed
Added: 150 mM LiCl
Reference: input library
Reading: higher = stronger binding
Endpoint: log2 enrichment
Each molecule: 7-deaza-guanosine replaces G
Constant ends, left off below: GGGAGUUCUACAGUCCGACGAUC … UGGAAUUCUCGGGUGUCAAGG
ACCAUGCAGGUGGGCAUCUUUGGGAAGUGGGGCAAGGGGGGGAUAGGGAGGGGGGUAAAACUUUGGGAACAGGUGGUCCCAGGUCGUUUC: 0.0828
AAGUCCUGUGCUACACAUCGUAUGUACCGAAUCGGAAAAAAAGGUUUUUUUGGUGGAAAGUAUUAUGUUACGCCGUUCGGAUCUGCACUU: -2.23
AAGUCCUGUGCUACACAUCGUAUGUACCGAAUCGGUUUUUGGUUUUUUUGGAAAGGAAAGUAUUAUGUUACGCCGUUCGGAUCUGCACUU: -0.981
GCAGGAAGUAAAAACAAAUGGAAAUGCUUCGGAUAGUGGCAGGGGUGGGGGUCGCUAAGGAAAGGGUGGGAUGGGAGUGGGUAAAGAGUU: -0.245
AGUCCUGUGCUACACAUCGUAUGUACCGAAUCGGGGUUUUGGUUUUGGGGUUUUGGGAAAGUAUUAUGUUACGCCGUUCGGAUCUGCACU: -0.359
CCUGUGCUACACAUCGUAUGUACCGAAUCGGGGUUUUUGGGGUUUGGGGAAAAAAAGGGGAAAGUAUUAUGUUACGCCGUUCGGAUCUGC: -0.121
UGGCCCUGGUGGCAUGCGGGGGGGAAGAGGUGGCCUCAUGGAUCGUGGUGGUCCCGGUGGAAUGUUCAGAGGUGGCCGUGGUGGAGACAG: 0.386
UAACUUUAGAGGAGGAUCUGAUGGAGAUGGCAGUGGACGUGGAUUUGGGGAUGGCUAUAAUGGGUAUGGAGGAGGACCUGGAGGUGGCAA: -0.15
UCAAGUCCUGUGCUACACAUCGUAUGUACCGAAUCGGGCCCGGGGCCCGGCCCGGAAAGUAUUAUGUUACGCCGUUCGGAUCUGCACUUC: -1.86
UCCUCAAGUCCUGUGCUACACAUCGUAUGUACCGAAUCGGGCGGGCGGCGGGAAAGUAUUAUGUUACGCCGUUCGGAUCUGCACUUCCAG: 1.04
GCAGGAAGUAAAAACAAAUGGAAAUGCUUCGGAUAGUGGCAGGGGUGGGGGUUGCUUAGGAAAGGGUGGGAUGGGAGUGGGUAAAGAGUU: -0.339

Series 5
Target: Sal-like protein 4, full length isoform B (SALL4, Homo sapiens, UniProt Q9UJQ4-2, residues 1-616)
Technique: universal PBM
Molecule type: double-stranded DNA, one strand shown
Sample: in vitro
Tested at: not given
Setting: 8-mer, flanks averaged, mean of replicates
Reading: higher = stronger binding
Endpoint: E-score
CCTGAATC: 0.0609
CAGGTTCG: -0.00196
ACCGTCAC: -0.152
AATAGATG: 0.142
GCACAGTA: 0.0702
GATCCCGC: -0.229
AGGGCCCA: -0.386
CAGTCAAA: -0.0397
ACCGAGGC: -0.313
AATCAAGA: 0.194
AGGGTGGG: -0.119
ACTTTCTC: 0.0423
AAGGTTAT: 0.215
ATGGCAGG: -0.101
ACCAGCAC: -0.0431
GCGAAGAC: -0.322
GGCCCACC: -0.387
GACGGATC: -0.207
